Measured values collected from several papers.
Every numbered part comes from another study and shows a few of its results, in no order.
UniProt Q13283, sequence (whole entry, looked up): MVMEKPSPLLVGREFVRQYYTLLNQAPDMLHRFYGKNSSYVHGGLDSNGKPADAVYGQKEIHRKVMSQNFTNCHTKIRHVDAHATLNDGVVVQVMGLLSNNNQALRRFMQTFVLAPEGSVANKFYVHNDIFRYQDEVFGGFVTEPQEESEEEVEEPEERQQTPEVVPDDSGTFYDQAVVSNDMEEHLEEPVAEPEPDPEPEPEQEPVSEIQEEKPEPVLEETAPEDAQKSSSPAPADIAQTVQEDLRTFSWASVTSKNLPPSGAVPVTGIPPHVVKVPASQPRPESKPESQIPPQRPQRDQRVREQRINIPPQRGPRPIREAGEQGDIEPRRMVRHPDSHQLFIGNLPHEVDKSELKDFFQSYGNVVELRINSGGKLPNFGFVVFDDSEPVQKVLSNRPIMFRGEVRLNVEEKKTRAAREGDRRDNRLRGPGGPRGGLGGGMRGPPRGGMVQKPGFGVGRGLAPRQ

Sample 1
Target: Histone acetyltransferase KAT6A, winged helix 2, GST fusion (KAT6A, Homo sapiens, UniProt Q92794, residues 85-181)
Technique: protein binding microarray
Molecule type: double-stranded DNA, one strand shown
Medium: in vitro
Tested at: not given
Setting: 8-mer, flanks averaged, mean of 2 arrays, mostly near background
Reference: not given
Reading: higher = stronger binding
Construct (chain): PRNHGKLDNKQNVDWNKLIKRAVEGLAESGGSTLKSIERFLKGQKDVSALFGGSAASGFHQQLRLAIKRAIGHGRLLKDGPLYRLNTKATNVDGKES
Strand	E-score
AACATATC	-0.0123
AGCGGTAT	-0.0335
CGCTATAA	-0.0983

Other studies, line by line
Fmr1 C-terminal low-complexity region: Fragile X messenger ribonucleoprotein 1, C-terminal low-complexity region (Fmr1, Mus musculus, UniProt P35922)
Molecule	target	test	test system	conditions	how to read	quantity	result
GGGAGUUCUACAGUCCGACGAUCAAGUCCUGUGCUACACAUCGUAUGUACCGAAUCGGGGAAAAAGGGGAGGGGUGGGGAAAGUAUUAUGUUACGCCGUUCGGAUCUGCACUUUGGAAUUCUCGGGUGUCAAGG	Fmr1 C-terminal low-complexity region	RNA Bind-n-Seq	RNA, in vitro	200 nM, whole 134-nt RNA, ends assumed, added: 150 mM KCl	reference: input library, higher = stronger binding	log2 enrichment	0.78
PhoQ, residues 284 288 289 292 302 303 AMDMFI	PhoP, residues 12 14 15 18 19 TTLRV (Escherichia coli, UniProt P23836)	Sort-seq, measured: YFP reporter	E. coli	PhoQ-PhoP variant library, added: 10 µM Mg2+	reference: high Mg2+ state, higher = stronger signaling	fold induction	0.952
GGGAGUUCUACAGUCCGACGAUCCAAGUCCUGUGCUACACAUCGUAUGUACCGAAUCGGGAAAGGGGAAAGGGAAAGGAAAGUAUUAUGUUACGCCGUUCGGAUCUGCACUUCUGGAAUUCUCGGGUGUCAAGG	Fmr1 C-terminal low-complexity region	RNA Bind-n-Seq	RNA, in vitro	200 nM, whole 134-nt RNA, ends assumed, added: 150 mM KCl	reference: input library, higher = stronger binding	log2 enrichment	-0.097
GCCTAGCACTTAGATTTCAGTTTTGATTAGTGCTAGGTCTTGATTCGCTTGACGCTGCTG	Interferon regulatory factor 5, full length, phosphomimetic (IRF5, Homo sapiens, UniProt Q13568-2, residues 1-514, K96S/S451D/S453D/S456D/S462D)	protein-binding microarray	double-stranded DNA, one strand shown, in vitro	250 nM, 60-bp whole probe, added: salmon DNA 0.4 mg/ml	reference: random background probes, higher = stronger binding	log fluorescence	3.48 z-score
GGGAGUUCUACAGUCCGACGAUCGUCCUGUGCUACACAUCGUAUGUACCGAAUCGGGUUUUUUUGGGAGGGUUUUUUUGGGAAAGUAUUAUGUUACGCCGUUCGGAUCUGCACUGGAAUUCUCGGGUGUCAAGG	Ras GTPase-activating protein-binding protein 1, full length (G3BP1, Homo sapiens, UniProt Q13283)	RNA Bind-n-Seq	RNA, in vitro	200 nM, whole 134-nt RNA, ends assumed, added: 150 mM KCl	reference: input library, higher = stronger binding	log2 enrichment	-0.273

Excerpt of the above (other studies, line by line):
Molecule	target	test	test system	conditions	how to read	quantity	result
PhoQ, residues 284 288 289 292 302 303 AMDMFI	PhoP, residues 12 14 15 18 19 TTLRV (Escherichia coli, UniProt P23836)	Sort-seq, measured: YFP reporter	E. coli	PhoQ-PhoP variant library, added: 10 µM Mg2+	reference: high Mg2+ state, higher = stronger signaling	fold induction	0.952
